Measurements from different studies.
Compare with care: the assays were run in different laboratories. Values joined by “and” are separate records of one study, mostly repeats; a detail may differ. ± marks the error that the study gave.

`C[C@@H]1CCC[C@H](n2cnc(-c3cc(Cl)ccc3-n3cc(Cl)nn3)cc2=O)c2cc(ccn2)-c2c(cnn2C(F)F)NC1=O` — result for “concentration for aPTT prolongation”: over 40 µM (rat plasma; IC2× aPTT, Actin FS reagent).
`COc1cc(Nc2ncc3c(n2)-c2ccc(Cl)cc2C(c2c(F)cccc2OC)=NC3)ccc1C(=O)O` — result for “median response score”: 10 (mouse, NB-EBc1 neuroblastoma xenograft; 20.8 mg/kg; direction not given).
`C[C@H](Oc1ccc(Br)cc1-c1ccon1)C(=O)O` gave a latency change of -1.51% (muscle velocity recovery cycles; human, tibialis anterior muscle; 1200 mg single dose, 3.5 h post-dose, frequency ramp, first response at 15 Hz; reference: placebo).
`COc1ccccc1[C@H](Cn1c(=O)n(C(C)(C)C(=O)O)c(=O)c2c(C)c(-c3ncco3)sc21)OC1CCOCC1` gave a blood ketones of 0.14 ± 0.052 mmol/L (human; 200 mg, post-treatment).
`CC(C)NCC(O)c1ccc(O)c(O)c1` (centres unmarked) has a sarcomere length of 1.55 µm (ventricular cardiomyocytes, C57BL/6 mouse; dose not given, 0.568 s).
Under “partial response as best response”, `COc1cc2cc(-c3ccc(CC(=O)Nc4cc(C(C)(C)C(F)(F)F)no4)cn3)cnc2cc1OC` is recorded as 0% (RECIST v1.1; RET-altered advanced solid tumour patients; oral, 20 mg once daily, phase I).
Under “log2 fold change”, `c1ccc(-c2n[nH]cc2-c2ccnc3ccccc23)nc1` is recorded as 1.76 (kinase binding, competitor, MIB/MS competition, measured: AKL1; Candida albicans cell lysate; 10 µM; reference: DMSO).
The inhibition of `CN[C@@H]1COc2c(S(=O)(=O)NC(=O)Nc3c4c(cc5c3CCC5)CCC4)cnn2C1` is reported as 99.5% (measured: IL-18; human participants, whole blood ex vivo; 900 mg twice daily, multiple doses, 144 h, IL-18, circulating, adjusted for, added: LPS/ATP; reference: baseline).
`COc1cc(-c2ccccc2)ncc1C(=O)Nc1ccc2c(=O)[nH]c(-c3ccc(C(C)(C)O)cc3)nc2c1`: “normalized enrichment score” -1.78 (RNA-seq GSEA, measured: HALLMARK_UNFOLDED_PROTEIN_RESPONSE; organoids, small intestinal, Apc Q1405X, mouse; dose not given, knockout organoids; reference: DMSO, direction not given).
The inhibition of `CC[C@@H]1[C@H](F)C(=O)N[C@@H]1COc1nccc2cc(C(N)=O)c(OC)cc12` is reported as -10.6% (ATP-site probe binding, ActivX profiling, measured: ROCK1, ROCK2; THP-1 cell lysate; 0.2 mM, Lys2 site).
Under “log2 fold change”, `N#Cc1ccc2c(-c3ccncc3)c(-c3ccc(F)cc3)nn2c1` is recorded as -0.162 (kinase binding, competitor, MIB/MS competition, measured: IKS1; Candida albicans cell lysate; 1 µM; reference: DMSO).
`CN(C(=O)n1cnc(-c2ccc[n+]([O-])c2)c1)C1CCCCC1` — result for “change in licking score”: -62% (mice, formalin paw test; 0.3 mg/kg, late phase, added: anandamide 5 mg/kg i.p.; reference: vehicle, direction not given).
`Cc1sc2c(c1C)C(c1ccc(Cl)cc1)=N[C@@H](CC(=O)NCCCCCCCCNC(=O)COc1cccc3c1C(=O)N(C1CCC(=O)NC1=O)C3=O)c1nnc(C)n1-2` (some centres unmarked) has an M1 macrophages of 1.83% and 1.86% and 1.89% and 1.94% (flow cytometry; mice, 4T1 tumour, tumour; dose not given).
`Cn1cc(Nc2nccc(-c3ccc4c(c3)CN(C3COC3)CC[C@H]4NC(=O)c3cn(C(C)(C)C)nn3)n2)cn1` — result for “pathway activation z-score”: -1.07 (measured: NER Pathway; splenic B cells, mouse; in vivo, 30 mg/kg, IgD-activated B cells; reference: vehicle, positive = activation).
For `CCCCCCCCCC1NCCc2cc(O)c(O)cc21` (centres unmarked), the Fe2+ chelation was 28.4 ± 1.31% (ferrozine; cell-free; 100 µM, DMSO solvent).
`Cc1cc([C@H]2C[C@H]3[C@@H](CF)SC(N)=N[C@@]3(c3ccc(F)cc3F)CO2)on1` — result for “brain Aβ40 level”: 2.92 ng/g (measured: Aβx-40; wild-type mouse, brain; subcutaneous, 30 mg/kg, 14 h).
`N#Cc1ccn2c(-c3ccncc3)c(-c3ccc(F)cc3)nc2c1`: “log2 fold change” -0.294 (kinase binding, competitor, MIB/MS competition, measured: FPK1; Candida albicans cell lysate; 10 µM; reference: DMSO).
Under “duration of γH2AX increase”, `C=CCn1c(=O)c2cnc(Nc3ccc(N4CCN(C)CC4)cc3)nc2n1-c1ccc2c(n1)[C@@](O)(CC)CC2` is recorded as 48 h (immunohistochemistry; mouse, OVCAR-3 xenograft, tumour; 100 mg/kg, dosed 5 days).
`OC(CCN1CCCCC1)(c1ccccc1)C1CC2C=CC1C2` (centres unmarked): “EEG Beta1-power Pz-O1” 4.2 µV² (resting-state EEG; healthy elderly humans; oral, 4 mg, eyes closed, LS mean).
For `CC(C)c1nc(N(C)S(C)(=O)=O)nc(-c2ccc(F)cc2)c1/C=C/[C@@H](O)C[C@@H](O)CC(=O)O`, the HDL cholesterol was 1.2 mmol/L (human, HIV-infected, plasma; median after treatment).
`NNC(=O)c1ccncc1` gave an IL-1β level of 73.4 pg/mL and 74.1 pg/mL and 77.6 pg/mL (ELISA; Mycobacterium marinum-infected mice, thymus; intraduodenal, 10 mg/kg three times daily, 3 days post infection).
Under “ATF4 protein change”, `O=C(COc1ccc(Cl)cc1)NC12CC(c3nnc([C@H]4C[C@@H](OC(F)(F)F)C4)o3)(C1)C2` is recorded as -51.1% (healthy human, PBMC; oral, 800 mg single dose, day 1, 4 h post-dose, median, added: sodium arsenite ex vivo; reference: baseline).
For `O=C(O)CNC(=O)Cc1ccccc1`, the sarcomere length was 1.65 µm (ventricular cardiomyocytes, C57BL/6 mouse; dose not given, 0.588 s).
For `Cc1nn(-c2nc3c(F)cc(F)cc3s2)c(O)c1C(c1ccc(C(F)(F)F)cc1)c1c(C)nn(-c2nc3c(F)cc(F)cc3s2)c1O`, the histology score was 0 (measured: pancreatic haemorrhage; mouse, cerulein-induced acute pancreatitis; 25 mg/kg; direction not given).
Under “aortic wall plaque area”, `O=c1cc(-c2ccccc2)oc2cc(O)c(O)c(O)c12` is recorded as 6.5 ± 3.24% (Oil Red O staining; ApoE-/- mouse on high-fat diet; oral gavage, 20 doses every three days, 72 h).
Under “normalized enrichment score”, `CN(C)C(=O)c1cc2cnc(Nc3ccc(N4CCNCC4)cn3)nc2n1C1CCCC1` is recorded as 0.983 (RNA-seq GSEA, measured: HALLMARK_NOTCH_SIGNALING; MB002 tumour; concentration not given, in vivo; reference: vehicle, direction not given).
For `C[C@H]1C[C@H]2CSC(N)=N[C@@]2(c2nc(NC(=O)c3ccc(OC(F)F)cn3)cs2)CO1`, “percent change from baseline” read -74.1% (measured: Aβx-40; healthy adults, plasma; 275 mg once daily, day 10; reference: placebo).
For `CC(=O)Oc1cc2c(s1)CCN(C(C(=O)C1CC1)c1ccccc1F)C2` (centres unmarked), “patients with IPA above 90%” read 0% (light transmittance aggregometry; human patients, platelet-rich plasma; dose not given, 1 h, added: ADP 20 µM; reference: patients).
For `Cc1ccc(NC(=O)c2ccc(CN3CCN(C)CC3)cc2)cc1Nc1nccc(-c2cccnc2)n1`, the lag time was 145 s (platelet aggregation; platelet-rich plasma; 1 µM, DMSO 130.6, added: collagen 2 mg/mL).
`Cc1ccc(C(=O)OCc2ccc([C@@H](CN)C(=O)Nc3ccc4cnccc4c3)cc2)c(C)c1` has an IOP of 17.8 mmHg (tonometry; Macaca cyclopis, ocular normotensive; ocular, 0.02%, 72 h).
With `NC(=O)c1cnc2[nH]ccc2c1N[C@@H]1[C@@H]2CC3C[C@H]1C[C@@](O)(C3)C2` the percent change was 0.48% (regulatory T cells, flow cytometry; Japanese humans, peripheral blood; 200 mg single dose; reference: baseline).
`Nc1nc2cc(-c3ccc4ncc(C(=O)N5CCOCC5)n4c3)ccc2o1` — result for “partial response duration”: 3.6 to 12.2 months (RECIST v1.1; advanced solid tumour patients; dose not given, range over).
`Cc1n[nH]c2ccc(-c3cc(OC[C@@H](N)Cc4ccccc4)cnc3-c3ccoc3)cc12` — result for “log2 fold change”: -0.106 (kinase binding, competitor, MIB/MS competition, measured: AKL1; Candida albicans cell lysate; 100 nM; reference: DMSO).
`Oc1cc2c(cc1O)C(CCc1ccccc1)NCC2` (centres unmarked) has a Fe2+ chelation of 90.3 ± 0.95% (ferrozine; cell-free; 100 µM, DMSO solvent).
Under “stable disease, best response”, `O=C1Nc2cc3[nH]nc(-c4ccncc4)c3cc2CN1Cc1ccccc1` is recorded as 0% (RECIST v1.1; human, relapsed or refractory advanced solid tumours; intravenous, 0.9 mg/kg, pooled schedules).
For `C[C@@H](NC(=O)N1C(=O)[C@H](Cc2ccnc(N)c2)[C@H]1C(=O)O)C1CCCCC1`, the aPTT AUEC was 6430 h·s (human; iv infusion, 0.3 mg/kg/h, 24 h).
Under “change in partial Mayo”, `Cc1cc(Nc2cc3ncccc3c(N[C@@H]3C[C@H]4CC[C@@H](C3)N4CCC#N)n2)n[nH]1` is recorded as -0.6 (moderate-severe ulcerative colitis patients; 20 mg, day 28, unit not given; reference: baseline).
Under ear edema, `Cc1ccccc1C(=O)NCc1ccc(CNS(=O)(=O)c2ccccc2)cc1` is recorded as “no effect” (xylene-induced ear edema; mouse; intraperitoneal, 10 mg/kg).
`N#Cc1ccc2c(c1)[C@H]1CCCN(C(=O)c3ccc4[nH]cnc4c3)[C@H]1C2` — result for “change in fasting insulin”: -37.7% (human, plasma; 20 mg, day 15, 360 h; reference: placebo and baseline).
`COc1ncc(-c2nc3c(n2C(C)C)[C@H](c2ccc(Cl)cc2)N(c2cc(Cl)cn(C)c2=O)C3=O)c(OC)n1`: “best overall response” 63.7% (International Working Group criteria; human acute myeloid leukemia patients; dose not given, response TF, all patients).
Under “responders with duration ≥ 12 months”, `C=CC(=O)Nc1cc(Nc2ncc(C(=O)OC(C)C)c(-c3cn(C)c4ccccc34)n2)c(OC)cc1N(C)CCN(C)C` is recorded as 19% (EGFR-mutant NSCLC patients; dose not given).
`N#Cc1ccc2c(c1)[C@H]1CCCN(C(=O)c3ccc4[nH]cnc4c3)[C@H]1C2`: “change from baseline” 1.2 mmHg (measured: diastolic blood pressure; human; 240 mg once daily, day 28, adjusted mean; reference: placebo).
`CO[C@H]1CC[C@H](N2C(=O)CNc3ncc(-c4ccc(C(C)(C)O)nc4)nc32)CC1` — result for “pAKT change from baseline”: 1.4% (flow cytometry; stimulated monocytes, human, blood; 60 mg single dose, 24 h, median; reference: baseline).
`NCC(=O)Nc1cncc(-c2nn3c(=O)cc(N4CCNCC4)nc3s2)c1`: “inhibition of platelet aggregation” -2.68% (ADP-induced platelet aggregation, light transmission aggregometry; human stable CAD patients on aspirin, platelets ex vivo; 0.05 mg/kg, 180 min post dose, added: 20 µM ADP; reference: placebo difference).
